Measurements collected from several papers.
≈ marks a conversion by molar mass, not a printed value.
UniProt P13945, sequence (whole entry, looked up): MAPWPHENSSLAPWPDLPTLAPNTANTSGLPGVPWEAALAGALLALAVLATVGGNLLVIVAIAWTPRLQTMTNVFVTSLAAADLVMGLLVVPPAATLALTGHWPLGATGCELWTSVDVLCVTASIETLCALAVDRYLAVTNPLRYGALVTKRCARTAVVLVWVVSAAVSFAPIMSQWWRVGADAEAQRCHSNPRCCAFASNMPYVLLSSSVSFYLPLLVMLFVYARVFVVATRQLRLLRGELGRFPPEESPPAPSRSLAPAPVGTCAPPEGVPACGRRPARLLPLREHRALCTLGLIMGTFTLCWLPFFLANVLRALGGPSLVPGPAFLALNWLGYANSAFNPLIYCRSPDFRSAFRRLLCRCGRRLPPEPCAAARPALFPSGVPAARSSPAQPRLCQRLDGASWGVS
UniProt Q86Y07, sequence (whole entry, looked up): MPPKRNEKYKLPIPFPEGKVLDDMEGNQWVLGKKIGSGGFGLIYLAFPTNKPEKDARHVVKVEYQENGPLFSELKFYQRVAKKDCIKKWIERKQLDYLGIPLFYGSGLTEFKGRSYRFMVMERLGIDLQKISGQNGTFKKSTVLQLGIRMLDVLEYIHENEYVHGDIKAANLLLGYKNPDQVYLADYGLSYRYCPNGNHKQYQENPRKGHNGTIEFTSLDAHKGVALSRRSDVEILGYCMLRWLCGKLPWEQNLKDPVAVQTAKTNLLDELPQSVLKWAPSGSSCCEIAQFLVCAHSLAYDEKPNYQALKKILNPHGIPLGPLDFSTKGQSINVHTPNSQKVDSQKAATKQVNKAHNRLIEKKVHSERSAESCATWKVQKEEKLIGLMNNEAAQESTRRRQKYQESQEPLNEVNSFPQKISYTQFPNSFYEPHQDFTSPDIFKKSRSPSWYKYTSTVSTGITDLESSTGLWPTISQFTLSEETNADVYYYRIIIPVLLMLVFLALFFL
UniProt P21397, sequence (whole entry, looked up): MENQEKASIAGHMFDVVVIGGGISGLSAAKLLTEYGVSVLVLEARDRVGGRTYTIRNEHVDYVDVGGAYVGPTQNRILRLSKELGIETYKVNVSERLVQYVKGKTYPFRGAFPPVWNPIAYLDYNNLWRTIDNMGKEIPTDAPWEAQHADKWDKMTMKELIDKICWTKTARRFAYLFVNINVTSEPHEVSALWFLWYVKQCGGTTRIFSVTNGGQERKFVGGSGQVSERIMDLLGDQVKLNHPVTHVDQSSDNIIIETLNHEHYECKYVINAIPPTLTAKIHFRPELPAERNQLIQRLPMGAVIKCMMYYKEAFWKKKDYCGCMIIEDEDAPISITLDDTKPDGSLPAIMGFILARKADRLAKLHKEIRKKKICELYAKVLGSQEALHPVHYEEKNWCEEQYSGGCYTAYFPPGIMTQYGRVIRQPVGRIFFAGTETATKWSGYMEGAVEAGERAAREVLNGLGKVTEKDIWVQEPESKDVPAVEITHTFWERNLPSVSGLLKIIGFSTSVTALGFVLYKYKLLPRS
UniProt Q16659, sequence (whole entry, looked up): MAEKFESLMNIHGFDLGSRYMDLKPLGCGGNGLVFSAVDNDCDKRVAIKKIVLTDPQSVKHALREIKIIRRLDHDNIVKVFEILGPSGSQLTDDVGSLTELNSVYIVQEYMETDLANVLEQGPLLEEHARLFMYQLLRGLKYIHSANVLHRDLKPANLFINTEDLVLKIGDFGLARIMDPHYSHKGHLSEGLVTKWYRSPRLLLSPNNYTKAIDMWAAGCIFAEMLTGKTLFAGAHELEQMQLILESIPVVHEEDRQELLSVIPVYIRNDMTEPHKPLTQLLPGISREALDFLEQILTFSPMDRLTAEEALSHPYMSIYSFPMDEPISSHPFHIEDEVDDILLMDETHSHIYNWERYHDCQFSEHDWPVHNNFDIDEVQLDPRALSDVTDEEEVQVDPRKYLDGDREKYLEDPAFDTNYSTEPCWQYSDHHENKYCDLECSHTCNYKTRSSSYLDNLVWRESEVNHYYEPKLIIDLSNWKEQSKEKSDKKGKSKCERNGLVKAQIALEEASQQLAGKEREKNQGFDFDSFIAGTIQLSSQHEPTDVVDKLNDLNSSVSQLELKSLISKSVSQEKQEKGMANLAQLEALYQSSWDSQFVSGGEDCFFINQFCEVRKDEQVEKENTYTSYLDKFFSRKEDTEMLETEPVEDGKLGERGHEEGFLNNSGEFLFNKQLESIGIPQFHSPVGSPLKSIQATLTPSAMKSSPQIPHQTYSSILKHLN
UniProt O00329, sequence (whole entry, looked up): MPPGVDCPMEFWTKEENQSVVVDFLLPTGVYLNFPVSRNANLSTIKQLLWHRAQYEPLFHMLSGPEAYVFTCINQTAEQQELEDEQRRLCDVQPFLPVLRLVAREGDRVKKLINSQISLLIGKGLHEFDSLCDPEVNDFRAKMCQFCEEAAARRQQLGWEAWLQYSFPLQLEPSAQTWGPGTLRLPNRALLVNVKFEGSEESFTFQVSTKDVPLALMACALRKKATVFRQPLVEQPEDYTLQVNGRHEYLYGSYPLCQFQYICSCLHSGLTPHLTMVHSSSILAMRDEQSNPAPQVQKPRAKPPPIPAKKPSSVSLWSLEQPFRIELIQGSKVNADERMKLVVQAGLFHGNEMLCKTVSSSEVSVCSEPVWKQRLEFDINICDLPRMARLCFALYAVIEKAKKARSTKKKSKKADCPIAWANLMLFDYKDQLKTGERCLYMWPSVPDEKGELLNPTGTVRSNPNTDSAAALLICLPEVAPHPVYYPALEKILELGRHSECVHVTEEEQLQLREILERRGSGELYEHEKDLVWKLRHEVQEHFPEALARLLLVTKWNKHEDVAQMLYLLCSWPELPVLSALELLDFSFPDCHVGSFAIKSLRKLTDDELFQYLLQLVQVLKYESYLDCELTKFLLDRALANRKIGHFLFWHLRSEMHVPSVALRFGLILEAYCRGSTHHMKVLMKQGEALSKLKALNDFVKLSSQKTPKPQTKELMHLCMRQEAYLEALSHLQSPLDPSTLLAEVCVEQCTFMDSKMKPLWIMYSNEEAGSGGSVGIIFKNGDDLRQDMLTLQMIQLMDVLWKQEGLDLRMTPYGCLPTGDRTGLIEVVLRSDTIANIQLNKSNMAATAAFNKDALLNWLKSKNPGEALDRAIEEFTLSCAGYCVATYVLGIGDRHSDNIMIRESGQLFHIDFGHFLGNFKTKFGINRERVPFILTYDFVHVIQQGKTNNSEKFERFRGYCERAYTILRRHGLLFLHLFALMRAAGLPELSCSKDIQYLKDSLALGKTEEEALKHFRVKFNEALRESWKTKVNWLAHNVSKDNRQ
UniProt Q92918, sequence (whole entry, looked up): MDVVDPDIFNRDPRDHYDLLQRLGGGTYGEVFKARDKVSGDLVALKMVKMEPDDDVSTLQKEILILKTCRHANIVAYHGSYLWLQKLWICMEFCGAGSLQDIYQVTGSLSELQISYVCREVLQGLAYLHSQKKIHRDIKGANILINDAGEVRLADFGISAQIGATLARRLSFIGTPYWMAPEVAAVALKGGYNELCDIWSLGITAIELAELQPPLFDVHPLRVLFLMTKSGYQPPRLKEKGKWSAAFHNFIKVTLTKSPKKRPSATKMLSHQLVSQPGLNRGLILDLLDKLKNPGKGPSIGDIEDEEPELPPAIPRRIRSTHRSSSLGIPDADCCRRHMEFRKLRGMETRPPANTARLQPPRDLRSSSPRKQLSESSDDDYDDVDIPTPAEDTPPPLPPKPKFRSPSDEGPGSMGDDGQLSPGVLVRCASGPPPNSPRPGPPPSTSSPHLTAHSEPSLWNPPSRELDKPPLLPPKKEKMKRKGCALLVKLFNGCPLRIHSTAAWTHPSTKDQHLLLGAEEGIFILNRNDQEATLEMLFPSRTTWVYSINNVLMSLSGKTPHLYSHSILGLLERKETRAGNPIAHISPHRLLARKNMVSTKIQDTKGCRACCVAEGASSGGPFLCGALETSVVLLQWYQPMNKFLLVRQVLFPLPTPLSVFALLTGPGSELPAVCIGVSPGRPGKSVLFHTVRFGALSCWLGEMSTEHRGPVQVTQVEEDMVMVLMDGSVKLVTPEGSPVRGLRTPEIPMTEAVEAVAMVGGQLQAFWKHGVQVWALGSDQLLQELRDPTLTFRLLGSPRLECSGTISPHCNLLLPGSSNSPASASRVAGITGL
UniProt Q8NFD2, sequence (whole entry, looked up): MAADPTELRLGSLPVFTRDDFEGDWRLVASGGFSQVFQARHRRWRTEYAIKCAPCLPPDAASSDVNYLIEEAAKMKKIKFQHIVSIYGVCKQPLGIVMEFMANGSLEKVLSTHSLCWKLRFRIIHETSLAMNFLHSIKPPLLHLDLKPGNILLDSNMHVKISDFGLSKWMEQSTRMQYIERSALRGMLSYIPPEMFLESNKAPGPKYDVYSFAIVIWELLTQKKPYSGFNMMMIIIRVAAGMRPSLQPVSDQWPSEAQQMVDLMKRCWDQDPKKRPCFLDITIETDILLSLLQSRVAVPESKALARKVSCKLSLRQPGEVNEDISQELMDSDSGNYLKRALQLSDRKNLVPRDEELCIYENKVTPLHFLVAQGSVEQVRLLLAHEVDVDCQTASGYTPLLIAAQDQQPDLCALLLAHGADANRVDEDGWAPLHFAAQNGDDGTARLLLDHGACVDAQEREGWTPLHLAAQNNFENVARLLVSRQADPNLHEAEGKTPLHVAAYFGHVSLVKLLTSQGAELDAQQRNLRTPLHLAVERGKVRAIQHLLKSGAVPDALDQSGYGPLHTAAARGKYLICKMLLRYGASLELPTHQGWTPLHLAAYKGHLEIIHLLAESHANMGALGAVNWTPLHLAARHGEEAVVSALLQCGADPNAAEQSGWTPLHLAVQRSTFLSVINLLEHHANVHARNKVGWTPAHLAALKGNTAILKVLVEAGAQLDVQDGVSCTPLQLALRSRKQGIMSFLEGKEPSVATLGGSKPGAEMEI

With `CC[C@H](C)[C@H](NC(=O)[C@H](Cc1ccccc1)NC(=O)[C@H](CCC(=O)O)NC(=O)[C@H](CCCNC(=N)N)NC(=O)[C@H](C)NC(=O)[C@H](C)NC(=O)[C@H](CCC(N)=O)NC(=O)[C@H](CCC(=O)O)NC(=O)[C@H](CCC(=O)O)NC(=O)[C@H](CC(C)C)NC(=O)[C@H](Cc1ccc(O)cc1)NC(=O)[C@H](CO)NC(=O)[C@H](CO)NC(=O)[C@@H](NC(=O)[C@H](CC(=O)O)NC(=O)[C@H](CO)NC(=O)[C@@H](NC(=O)[C@H](Cc1ccccc1)NC(=O)[C@@H](NC(=O)CNC(=O)[C@H](CCC(=O)O)NC(=O)[C@H](C)NC(=O)CCc1c[nH]cn1)[C@@H](C)O)[C@@H](C)O)C(C)C)C(=O)N[C@@H](C)C(=O)N[C@@H](Cc1c[nH]c2ccccc12)C(=O)N[C@@H](CC(C)C)C(=O)N[C@H](C(=O)N[C@@H](CCCNC(=N)N)C(=O)NCC(=O)N[C@@H](CCCNC(=N)N)C(=O)N[C@@H](CCCCNC(=O)COCCOCCNC(=O)COCCOCCNC(=O)CC[C@H](NC(=O)CCCCCCCCCCCCCCCCC(=O)O)C(=O)O)C(=O)NCC(=O)NCC(=O)N[C@@H](CO)C(=O)N[C@@H](CCCCNc1c(NCCCCCN(O)C(=O)CCC(=O)NCCCCCN(O)C(=O)CCC(=O)NCCCCCN(O)C(C)=O)c(=O)c1=O)C(=O)O)C(C)C` the clearance was 0.117 mL/min/kg (rat, plasma; intravenous, 20 nmol/kg).
`Oc1cccc(N2C[C@H]3CC[C@@H](C2)N3CCCc2ccccc2)c1` gave an Emax of 0% (OPRK1 (Homo sapiens, UniProt P41145); cAMP, agonist).
For `COc1ncccc1-c1cnn2ccc(N3CCN(C(=O)OC(C)C)CC3)nc12`, the remaining binding was 99% (VRK2 (Homo sapiens, UniProt Q86Y07); binding, competition with immobilised ligand; 1 µM).
`CC(C)CC(=O)OC[C@H]1O[C@@](C#N)(c2ccc3c(N)ncnn23)[C@H](O)[C@@H]1O` gave an inhibition of -2% (MAOA (Homo sapiens, UniProt P21397); enzyme activity, inhibitor; 20 µM).
The inhibition of `C#Cc1n[nH]c2c(-c3cn(C(C)c4ccccn4)c(=O)[nH]c3=O)cc(F)cc12` (stereo not shown) is reported as 11% (MAP4K1 (Homo sapiens, UniProt Q92918); enzyme activity, inhibitor; 1 µM).
`[2H]c1c([2H])c([C@]2([2H])CCCN2C(=O)C(C)(C)Oc2ccc3cn[nH]c3c2)c([2H])c([2H])c1C([2H])([2H])[2H]` gave a remaining binding of 96% (PIK3CD (Homo sapiens, UniProt O00329); binding, competition with immobilised ligand; 1 µM).
`N.N.[Cl][Pt][Cl]` has an inhibition of 100% (Z-138; cell growth or viability, ATP luminescence; 10 µM, 72 h).
With `CCCCC/C=C\[C@H](C)/C=C\C/C=C\Cc1ccccc1CCCC(=O)OC(CO)CO` the Emax was 69% (CNR2 (Homo sapiens, UniProt P34972); β-arrestin recruitment, agonist).
`Cc1nn(C)cc1-c1nc2c(N3CCN(Cc4ccc(Cl)cc4)CC3)c(Cl)cnc2[nH]1` gave a remaining binding of 87% (MAPK6 (Homo sapiens, UniProt Q16659); binding, competition with immobilised ligand; 1 µM).
`CN1CCC[C@H]1c1cccnc1` gave an inhibition of 2.19% (ADRB3 (Homo sapiens, UniProt P13945); ligand displacement; 50 µM).
With `Nc1ncc(-c2nc(N3CCOCC3)nc(N3CCOCC3)n2)c(C(F)F)n1` the remaining binding was 54% (ANKK1 (Homo sapiens, UniProt Q8NFD2); binding, competition with immobilised ligand; 10 µM).
The viability of `COc1ccc(Nc2nn3c(-c4ccccc4)ccnc3c2C(=O)Nc2ccccc2)cc1` is reported as 75.7% (Caco-2; cell growth or viability, MTT; 12.5 µg/mL, 48 h, serum-free).
`C#Cc1ccc2c(c1)C(c1ccccn1)=NCc1c(-c3cnco3)ncn1-2` gave a kinetic solubility of 325 µg/mL (≈ 924 µM) (water; 1 h, 37 °C).

Some of these lines once more:
`N.N.[Cl][Pt][Cl]` has an inhibition of 100% (Z-138; cell growth or viability, ATP luminescence; 10 µM, 72 h).
With `CCCCC/C=C\[C@H](C)/C=C\C/C=C\Cc1ccccc1CCCC(=O)OC(CO)CO` the Emax was 69% (CNR2 (Homo sapiens, UniProt P34972); β-arrestin recruitment, agonist).
